Measurements of several laboratories.
Every numbered part comes from another study and shows a few of its results, in no order.
Chain of UniProt P36896 (whole entry, looked up): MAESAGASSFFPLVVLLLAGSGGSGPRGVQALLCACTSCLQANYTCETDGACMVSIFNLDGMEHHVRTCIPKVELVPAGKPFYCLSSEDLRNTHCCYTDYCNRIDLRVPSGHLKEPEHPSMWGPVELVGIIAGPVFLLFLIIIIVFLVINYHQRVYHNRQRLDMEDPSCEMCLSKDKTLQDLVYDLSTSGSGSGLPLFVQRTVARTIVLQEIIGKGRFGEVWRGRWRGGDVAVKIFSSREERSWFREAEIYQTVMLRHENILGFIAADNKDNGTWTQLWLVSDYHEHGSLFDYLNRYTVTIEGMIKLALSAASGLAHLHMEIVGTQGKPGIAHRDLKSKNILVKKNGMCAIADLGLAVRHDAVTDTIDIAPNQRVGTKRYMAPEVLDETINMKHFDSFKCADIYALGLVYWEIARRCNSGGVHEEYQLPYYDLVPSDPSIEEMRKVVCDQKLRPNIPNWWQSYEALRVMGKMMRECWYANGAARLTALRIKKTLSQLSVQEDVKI
Chain of UniProt P07333 (whole entry, looked up): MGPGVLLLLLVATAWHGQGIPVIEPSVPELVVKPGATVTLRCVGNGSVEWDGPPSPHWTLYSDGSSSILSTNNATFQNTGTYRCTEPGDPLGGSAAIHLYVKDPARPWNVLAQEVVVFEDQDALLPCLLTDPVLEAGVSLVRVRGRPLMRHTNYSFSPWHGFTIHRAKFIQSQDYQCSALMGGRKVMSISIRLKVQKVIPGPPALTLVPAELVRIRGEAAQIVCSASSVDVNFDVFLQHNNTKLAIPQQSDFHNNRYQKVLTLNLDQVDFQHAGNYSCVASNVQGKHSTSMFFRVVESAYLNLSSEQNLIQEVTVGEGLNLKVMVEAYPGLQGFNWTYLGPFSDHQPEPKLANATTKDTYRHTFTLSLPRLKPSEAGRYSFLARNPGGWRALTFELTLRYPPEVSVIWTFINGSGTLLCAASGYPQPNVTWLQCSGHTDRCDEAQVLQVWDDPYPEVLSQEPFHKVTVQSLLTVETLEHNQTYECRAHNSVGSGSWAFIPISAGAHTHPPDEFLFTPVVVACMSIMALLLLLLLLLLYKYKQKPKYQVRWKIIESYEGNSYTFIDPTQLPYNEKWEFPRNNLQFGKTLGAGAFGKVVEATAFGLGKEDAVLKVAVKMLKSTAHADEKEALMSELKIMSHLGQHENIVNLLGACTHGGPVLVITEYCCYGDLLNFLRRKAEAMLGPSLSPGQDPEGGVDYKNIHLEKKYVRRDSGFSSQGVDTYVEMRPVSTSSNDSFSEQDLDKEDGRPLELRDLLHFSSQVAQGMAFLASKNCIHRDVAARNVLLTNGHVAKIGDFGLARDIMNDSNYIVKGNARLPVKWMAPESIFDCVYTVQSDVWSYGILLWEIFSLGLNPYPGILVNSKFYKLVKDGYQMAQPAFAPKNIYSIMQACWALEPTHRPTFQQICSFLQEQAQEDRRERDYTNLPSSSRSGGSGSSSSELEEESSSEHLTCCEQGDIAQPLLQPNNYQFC
Chain of UniProt Q15208 (whole entry, looked up): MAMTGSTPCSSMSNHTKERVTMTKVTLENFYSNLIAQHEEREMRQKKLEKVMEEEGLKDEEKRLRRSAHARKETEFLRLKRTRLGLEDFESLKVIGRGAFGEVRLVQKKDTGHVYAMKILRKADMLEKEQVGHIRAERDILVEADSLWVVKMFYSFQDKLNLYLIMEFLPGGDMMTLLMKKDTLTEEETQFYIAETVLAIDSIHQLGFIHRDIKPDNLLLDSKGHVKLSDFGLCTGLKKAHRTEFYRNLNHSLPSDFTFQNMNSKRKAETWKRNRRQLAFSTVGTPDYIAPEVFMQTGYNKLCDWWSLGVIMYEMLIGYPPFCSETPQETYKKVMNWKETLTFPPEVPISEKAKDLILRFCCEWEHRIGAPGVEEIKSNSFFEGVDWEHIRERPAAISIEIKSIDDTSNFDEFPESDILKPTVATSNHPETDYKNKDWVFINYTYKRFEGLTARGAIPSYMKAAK
Chain of UniProt Q96Q40 (whole entry, looked up): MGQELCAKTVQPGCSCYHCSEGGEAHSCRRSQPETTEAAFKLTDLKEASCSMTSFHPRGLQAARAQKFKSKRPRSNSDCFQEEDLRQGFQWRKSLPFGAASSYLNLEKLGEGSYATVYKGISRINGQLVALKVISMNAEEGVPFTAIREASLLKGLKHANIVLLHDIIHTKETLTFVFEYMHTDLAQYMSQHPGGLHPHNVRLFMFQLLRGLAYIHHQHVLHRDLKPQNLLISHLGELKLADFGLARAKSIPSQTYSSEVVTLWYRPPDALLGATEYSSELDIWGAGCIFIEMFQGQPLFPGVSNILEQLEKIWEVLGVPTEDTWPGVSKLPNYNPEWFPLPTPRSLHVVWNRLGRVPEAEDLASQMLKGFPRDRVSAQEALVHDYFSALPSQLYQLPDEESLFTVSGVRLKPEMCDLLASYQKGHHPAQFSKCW
Chain of UniProt P68400 (whole entry, looked up): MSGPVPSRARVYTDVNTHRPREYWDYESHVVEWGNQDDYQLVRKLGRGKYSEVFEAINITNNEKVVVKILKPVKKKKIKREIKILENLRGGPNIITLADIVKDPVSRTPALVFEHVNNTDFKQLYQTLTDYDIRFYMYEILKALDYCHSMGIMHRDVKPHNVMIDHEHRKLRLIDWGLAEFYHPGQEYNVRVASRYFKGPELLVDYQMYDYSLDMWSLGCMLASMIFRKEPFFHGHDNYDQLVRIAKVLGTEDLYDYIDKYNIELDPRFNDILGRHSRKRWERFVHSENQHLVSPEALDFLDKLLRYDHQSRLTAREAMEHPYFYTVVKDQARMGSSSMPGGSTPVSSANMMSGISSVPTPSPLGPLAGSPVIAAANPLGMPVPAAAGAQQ
Chain of UniProt P57078 (whole entry, looked up): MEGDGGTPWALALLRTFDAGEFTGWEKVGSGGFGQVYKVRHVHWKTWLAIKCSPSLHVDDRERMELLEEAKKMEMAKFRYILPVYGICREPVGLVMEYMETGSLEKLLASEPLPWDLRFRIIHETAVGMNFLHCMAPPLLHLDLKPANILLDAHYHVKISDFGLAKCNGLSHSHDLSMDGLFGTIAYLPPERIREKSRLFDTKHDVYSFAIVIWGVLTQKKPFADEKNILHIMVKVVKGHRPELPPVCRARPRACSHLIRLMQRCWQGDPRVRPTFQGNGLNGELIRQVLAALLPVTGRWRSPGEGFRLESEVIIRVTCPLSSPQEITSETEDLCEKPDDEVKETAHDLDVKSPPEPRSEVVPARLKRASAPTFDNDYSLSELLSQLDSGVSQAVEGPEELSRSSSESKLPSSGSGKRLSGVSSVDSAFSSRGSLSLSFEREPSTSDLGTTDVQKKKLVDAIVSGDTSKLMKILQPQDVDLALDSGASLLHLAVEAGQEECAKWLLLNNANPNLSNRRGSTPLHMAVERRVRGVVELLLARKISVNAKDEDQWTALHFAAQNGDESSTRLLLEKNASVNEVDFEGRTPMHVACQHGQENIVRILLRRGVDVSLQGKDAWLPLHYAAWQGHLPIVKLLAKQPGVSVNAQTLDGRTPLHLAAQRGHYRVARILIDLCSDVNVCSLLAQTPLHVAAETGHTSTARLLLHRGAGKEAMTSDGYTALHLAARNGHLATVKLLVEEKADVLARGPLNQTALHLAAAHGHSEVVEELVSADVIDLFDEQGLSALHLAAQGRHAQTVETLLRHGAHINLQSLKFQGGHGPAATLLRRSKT
Chain of UniProt P20794 (whole entry, looked up): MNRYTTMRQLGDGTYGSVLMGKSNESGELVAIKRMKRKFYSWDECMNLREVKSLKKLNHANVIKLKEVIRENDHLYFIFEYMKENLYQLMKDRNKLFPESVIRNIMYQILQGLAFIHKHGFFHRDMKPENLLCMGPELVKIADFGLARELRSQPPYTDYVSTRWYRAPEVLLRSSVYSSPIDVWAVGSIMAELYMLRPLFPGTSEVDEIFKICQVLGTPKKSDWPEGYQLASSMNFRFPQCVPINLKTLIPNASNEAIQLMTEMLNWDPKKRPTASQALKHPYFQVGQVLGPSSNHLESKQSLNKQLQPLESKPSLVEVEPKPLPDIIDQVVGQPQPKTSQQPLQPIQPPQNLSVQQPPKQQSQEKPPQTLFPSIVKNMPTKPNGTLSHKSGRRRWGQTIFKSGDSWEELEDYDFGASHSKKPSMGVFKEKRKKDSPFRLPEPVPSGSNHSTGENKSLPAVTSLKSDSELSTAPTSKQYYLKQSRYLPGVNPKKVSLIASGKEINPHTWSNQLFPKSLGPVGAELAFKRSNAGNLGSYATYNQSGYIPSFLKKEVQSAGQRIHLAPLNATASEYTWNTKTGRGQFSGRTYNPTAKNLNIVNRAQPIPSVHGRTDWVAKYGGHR
Chain of UniProt P53778 (whole entry, looked up): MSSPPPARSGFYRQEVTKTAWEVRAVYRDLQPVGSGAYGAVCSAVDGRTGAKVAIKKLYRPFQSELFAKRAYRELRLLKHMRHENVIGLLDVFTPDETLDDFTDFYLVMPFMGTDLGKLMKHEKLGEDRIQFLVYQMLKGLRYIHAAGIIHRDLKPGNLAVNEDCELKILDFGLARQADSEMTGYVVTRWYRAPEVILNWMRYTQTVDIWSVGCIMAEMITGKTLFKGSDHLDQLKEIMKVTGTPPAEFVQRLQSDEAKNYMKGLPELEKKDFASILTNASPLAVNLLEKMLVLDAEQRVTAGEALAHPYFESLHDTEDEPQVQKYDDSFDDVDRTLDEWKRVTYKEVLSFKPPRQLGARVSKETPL

Series 1 — read-out: enzyme activity; mode: inhibitor; tested at: 0.5 µM; reference: control
Target: Dual specificity protein kinase TTK (TTK, Homo sapiens, UniProt P33981)
Target sequence (P33981 1-857): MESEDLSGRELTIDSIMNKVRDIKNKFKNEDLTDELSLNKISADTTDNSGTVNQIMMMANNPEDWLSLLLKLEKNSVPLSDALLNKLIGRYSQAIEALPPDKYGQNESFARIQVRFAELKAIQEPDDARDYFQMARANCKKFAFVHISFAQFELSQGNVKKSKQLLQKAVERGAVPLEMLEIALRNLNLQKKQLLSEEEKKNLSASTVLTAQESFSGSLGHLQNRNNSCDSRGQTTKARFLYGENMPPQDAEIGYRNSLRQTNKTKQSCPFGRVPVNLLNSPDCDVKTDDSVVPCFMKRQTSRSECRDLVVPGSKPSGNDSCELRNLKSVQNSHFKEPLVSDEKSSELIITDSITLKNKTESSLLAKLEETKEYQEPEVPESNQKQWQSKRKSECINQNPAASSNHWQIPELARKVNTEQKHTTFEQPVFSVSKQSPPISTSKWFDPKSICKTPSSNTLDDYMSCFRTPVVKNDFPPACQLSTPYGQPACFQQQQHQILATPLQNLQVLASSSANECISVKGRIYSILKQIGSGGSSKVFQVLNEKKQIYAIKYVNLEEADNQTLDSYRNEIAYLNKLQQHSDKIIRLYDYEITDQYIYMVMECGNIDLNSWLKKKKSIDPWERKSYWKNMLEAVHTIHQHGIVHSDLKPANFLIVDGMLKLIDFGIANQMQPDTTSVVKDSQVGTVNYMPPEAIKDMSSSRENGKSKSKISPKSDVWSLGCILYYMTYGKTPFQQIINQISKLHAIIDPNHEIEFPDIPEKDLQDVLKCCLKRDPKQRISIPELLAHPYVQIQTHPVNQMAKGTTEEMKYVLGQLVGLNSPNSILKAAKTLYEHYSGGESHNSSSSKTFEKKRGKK
SMILES | remaining activity [%]
Cc1nc2cc3nc(-c4cccs4)cnc3cc2n1C | 92.6
N#Cc1c(NC(=O)c2cccc3ccccc23)sc2c1CCCC2 | 85.5
CN([C@@H](Cc1ccc(OS(=O)(=O)c2cccc3cnccc23)cc1)C(=O)N1CCN(c2ccccc2)CC1)S(=O)(=O)c1cccc2cnccc12 | 86
O=C(NC(NC(=S)Nc1ccc(F)c([N+](=O)[O-])c1)C(Cl)(Cl)Cl)C(c1ccccc1)c1ccccc1 (stereo not shown) | 96.9
CN(C)C[C@H]1CCn2c(c(C3=C(c4cn(C)c5ccccc45)C(=O)NC3=O)c3ccccc32)C1 | 105
Cc1cn(-c2cc(NC(=O)c3ccc(C)c(Nc4nccc(-c5cccnc5)n4)c3)cc(C(F)(F)F)c2)cn1 | 97.9
N#C/C(=C\c1ccc(O)c(O)c1)C(=O)NCc1ccccc1 | 103
c1ccc(-c2cnc(Nc3ccc(OCCN4CCCC4)cc3)s2)cc1 | 102
O=C1c2ccccc2-c2n[nH]c3cccc1c23 | 68.9
COc1cc2ncnc(Nc3ccc(O)c(Br)c3)c2cc1OC | 105
Cc1cc2ncc(-c3ccccc3)nc2cc1C | 91
O=c1cc(-c2cccc3c2Sc2ccccc2S3)oc(N2CCOCC2)c1 | 106
Ic1cccc(CSc2nnc(-c3ccncc3)o2)c1 | 103
C[C@@H]1CCN(C(=O)CC#N)C[C@@H]1N(C)c1ncnc2[nH]ccc12 | 108
COc1cc2c(cc1OC)-c1[nH]nc(Nc3cccc(F)c3)c1C2 | 84.1
Nc1cccc(-c2cc3c(Oc4cccc(O)c4)ncnc3[nH]2)c1 | 104
CCN(CC)CCNC(=O)c1c(C)[nH]c(/C=C2\C(=O)Nc3ccc(Cl)cc32)c1C | 59.8
c1ccc(-c2[nH]ncc2-c2ccnc3ccccc23)nc1 | 97.4
O=C(Nc1cccc(Nc2nccc(Nc3cccc(C(F)(F)F)c3)n2)c1)C1CC1 | 92.1
CCN(CC)C(=O)c1ccc(Nc2nc(OCC3CCCCC3)c3[nH]cnc3n2)cc1 | 47.8
Cn1nc2c3c(cccc31)C(=O)c1ccccc1-2 | 77.7
CCOc1nc(NC(=O)Cc2cc(OC)ccc2OC)cc(N)c1C#N | 75.6
O=C1C(Cl)=C(N2C(=O)CCC2=O)C(=O)c2ccccc21 | 108
COc1cc2ncnc(Nc3cccc(Cl)c3)c2cc1OC | 108

Series 2 — read-out: RNA clamping; technique: fluorescence polarization; tested at: concentration not given; added: FAM-labelled poly r(AG)8 RNA
Target: Eukaryotic initiation factor 4A-III (Homo sapiens, UniProt P38919)
Chain of UniProt P38919 (whole entry, looked up): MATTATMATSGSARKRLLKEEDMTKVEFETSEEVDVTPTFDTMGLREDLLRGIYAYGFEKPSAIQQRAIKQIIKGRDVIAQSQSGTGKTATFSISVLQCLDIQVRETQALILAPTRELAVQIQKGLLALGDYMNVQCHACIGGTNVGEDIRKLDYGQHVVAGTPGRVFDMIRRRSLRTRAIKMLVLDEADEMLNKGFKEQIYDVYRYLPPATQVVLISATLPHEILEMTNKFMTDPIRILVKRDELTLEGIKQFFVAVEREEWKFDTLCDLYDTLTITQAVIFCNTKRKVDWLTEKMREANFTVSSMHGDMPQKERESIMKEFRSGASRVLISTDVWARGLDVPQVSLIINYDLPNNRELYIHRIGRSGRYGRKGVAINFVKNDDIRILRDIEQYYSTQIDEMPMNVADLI
SMILES | fluorescence polarization change [mP]
C=CCN1c2cc(OC)cc(OC)c2[C@]2(O)[C@H](O)[C@H](C(=O)OC)[C@@H](c3ccccc3)[C@]12c1ccc(OC)cc1 | -0.5
COc1ccc([C@@]23Oc4cc(O)cc(OC)c4[C@]2(O)[C@H](O)[C@H](C(=O)c2ccco2)[C@H]3c2ccccc2)cc1 | 3.5
CCCN(CCC)[C@@]12C(=O)[C@H](C(=O)OC)[C@@H](c3ccccc3)[C@]1(c1ccc(OC)cc1)Oc1cc(OC)cc(OC)c12 | 6.2
COc1ccc([C@@]23Oc4cc(OC)cc(OC)c4[C@]2(O)[C@H](O)[C@H](C(=O)c2cc4ccccc4o2)[C@H]3c2ccccc2)cc1 | 5.1
COC(=O)[C@H]1C(=O)[C@@]2(OC)c3c(OC)cc(OC)cc3O[C@@]2(c2ccc(OC)cc2)[C@@H]1c1ccccc1 | -0.5
COC(=O)[C@@H]1[C@@H](c2ccccc2)[C@]2(c3ccc(OC)cc3)Oc3cc(OC)cc(OC)c3[C@@]23OC(c2cccnc2)=N[C@@]13O | 3.2
COC(=O)[C@H]1C(=O)[C@@]2(NCC3CCNCC3)c3c(OC)cc(OC)cc3O[C@@]2(c2ccc(OC)cc2)[C@@H]1c1ccccc1 | 7.3
COc1ccc([C@@]23Oc4cc(OC)cc(OC)c4[C@]2(O)[C@H](O)[C@H](C(=O)c2nccn2C)[C@H]3c2ccccc2)cc1 | 21.2
COc1ccc([C@@]23Oc4cc(OC)cc(OC)c4[C@]2(O)[C@H](O)[C@H](C(=O)c2cc4ccccc4n2C)[C@H]3c2ccccc2)cc1 | 8.6
COC(=O)[C@@H]1[C@@H](c2ccccc2)[C@]2(c3ccc(OC)cc3)Oc3cc(OC)cc(OC)c3[C@@]23N2CCCCC2=N[C@@]13O | 38.1
CNCCOc1ccc2c(c1)O[C@@]1(c3ccc(Cl)cc3)[C@H](c3ccccc3)C[C@H](O)[C@@]21O | 108
COc1ccc([C@]23Oc4cc(OC)cc(OC)c4[C@@]2(O)c2nc(-c4ccc(C)cc4)[nH]c(=O)c2[C@@H]3c2ccccc2)cc1 | 21.5
COc1ccc([C@@]23Oc4cc(OC)cc(OC)c4[C@]2(O)[C@@H]2OC(=O)[C@@H]2[C@H]3c2ccccc2)cc1 | 25.1
COC(=O)[C@H]1C(=O)[C@@]2(NCC3CCOCC3)c3c(OC)cc(OC)cc3O[C@@]2(c2ccc(OC)cc2)[C@@H]1c1ccccc1 | -0.6
CN[C@@]12C(=O)[C@H](C(=O)OC)[C@@H](c3ccccc3)[C@]1(c1ccc(OC)cc1)Oc1cc(OC)cc(OC)c12 | 4.1

Series 3 — species: mouse; sample: microsomes or S9; tested at: 2 µM; time: 0.5 h
Structure (SMILES) | remaining compound
Cc1ccc(C)c(-n2nnnc2SCc2nc3cc(C(F)(F)F)ccc3c(=O)[nH]2)c1 | 21.3%
Cc1cc(C(C)(C)C)cc(C)c1CS(=O)(=O)CCn1cccn1 | 2.45%
Cn1nc2c(c1C(=O)N1CCC(C3CCCCN3S(C)(=O)=O)CC1)CCCC2 (stereo not shown) | 4.77%
CCOc1ccc2[nH]c3c(=O)n(CCN(C(C)C)C(C)C)cnc3c2c1 | 1.46%
COc1cc2c(Nc3cc(Cl)cc(Cl)c3)ncnc2cc1O | 4.64%
CC(=O)Oc1cc(OC(C)=O)c2c(c1)-c1coc3cc(OC(C)=O)cc(c13)C2=O | 0.0112%
Cc1ccccc1-c1nc2ccccc2cc1C(C)n1c(=O)n(-c2ccc(O)c(F)c2)c2cnc(N)nc21 (stereo not shown) | 5.82%
Oc1cc(Nc2cccc(Br)c2)nc(O)n1 | 93.9%
O=c1[nH]c(N2CCCC2)nc2ncc3c(c12)CCC3 | 10.5%
C=CC(C)(O)CC[C@]1(C)[C@H]2CC(=O)C=C(C)[C@]2(C)C[C@@H](O)[C@@H]1C (stereo partly shown) | 10.5%
CCN(CC)CCNc1nc(C)cc(COC)c1C(N)=O | 36.1%
Cc1nc(C)c(COCc2ccccc2)c(-c2ccc(Cl)cc2)c1CO | 0.173%
Fc1ccc2nc(-c3csc(-c4ccco4)n3)[nH]c2c1 | 0.053%
CCN(CC)CC/C=C/C1(O)c2ccccc2-c2ccccc21 | 0.352%
CC(C)n1nc(-c2nnc(-c3cccc(Br)c3)[nH]2)c2ccccc2c1=O | 5.63%
Clc1ccc2nc(N3CCc4ccccc4C3)sc2c1 | 11.8%
Cc1ccc2c(c1)N(C(=O)c1ccncc1)CC(C)O2 (stereo not shown) | 93.3%

Series 4 — read-out: cell-free assay; technique: competition with immobilised ligand; tested at: 1 µM
SMILES: CCCCN(CCCC)C(=O)CN1C[C@@H](c2cc(OC)c3c(c2)OCO3)[C@H](C(=O)O)[C@H]1CC(C)(C)CCC
target | remaining binding
RIPK4 (Homo sapiens, UniProt P57078) | 77.2%
CSF1R (Homo sapiens, UniProt P07333) | 86.7%
STK38 (Homo sapiens, UniProt Q15208) | 95.2%
CLK2 (Homo sapiens, UniProt P49760) | 100%
PIP5K1C (Homo sapiens, UniProt O60331) | 100%
MAPK7 (Homo sapiens, UniProt Q13164) | 100%
ROCK1 (Homo sapiens, UniProt Q13464) | 100%
CSNK2A1 (Homo sapiens, UniProt P68400) | 88.6%
ACVR1B (Homo sapiens, UniProt P36896) | 96.4%
EPHB3 (Homo sapiens, UniProt P54753) | 100%
CDK15 (Homo sapiens, UniProt Q96Q40) | 93.8%
PIP5K1A (Homo sapiens, UniProt Q99755) | 100%
MAPK12 (Homo sapiens, UniProt P53778) | 100%
MAK (Homo sapiens, UniProt P20794) | 100%

Repeated from above (series 1):
SMILES | remaining activity [%]
O=C(NC(NC(=S)Nc1ccc(F)c([N+](=O)[O-])c1)C(Cl)(Cl)Cl)C(c1ccccc1)c1ccccc1 (stereo not shown) | 96.9
CN(C)C[C@H]1CCn2c(c(C3=C(c4cn(C)c5ccccc45)C(=O)NC3=O)c3ccccc32)C1 | 105
Cc1cn(-c2cc(NC(=O)c3ccc(C)c(Nc4nccc(-c5cccnc5)n4)c3)cc(C(F)(F)F)c2)cn1 | 97.9
N#C/C(=C\c1ccc(O)c(O)c1)C(=O)NCc1ccccc1 | 103
c1ccc(-c2cnc(Nc3ccc(OCCN4CCCC4)cc3)s2)cc1 | 102
O=C1c2ccccc2-c2n[nH]c3cccc1c23 | 68.9
COc1cc2ncnc(Nc3ccc(O)c(Br)c3)c2cc1OC | 105
Cc1cc2ncc(-c3ccccc3)nc2cc1C | 91
O=c1cc(-c2cccc3c2Sc2ccccc2S3)oc(N2CCOCC2)c1 | 106
Ic1cccc(CSc2nnc(-c3ccncc3)o2)c1 | 103
